Measured values pooled from the literature.
Each line is one published result; not all experiments were run side by side.
Cell line: HFF

SMILES | test | setting | measurement | result
Nc1nc2c(ncn2COCCOC(=O)CCC(=O)OC[C@H](N)C(=O)O)c(=O)[nH]1 | cell growth or viability |  | CC50 | > 300 µM
O=C(CCCN1C(=O)c2cccc3cccc(c23)C1=O)NO | LDH release | 100 µM, 48 h | cytotoxicity | not toxic
N#Cc1nc(N2CCOCC2)nc(N(Cc2ccc(F)cc2)CC2CCCCC2)n1 | cell growth or viability, MTS | 7 days | CC50 | > 100 µM
C[C@H](N)C(=O)OCCOCn1cnc2c(=O)[nH]c(N)nc21 | cell proliferation | 10% FBS | CC50 | > 300 µM
C[C@@H]1O[C@H]2O[C@@H]3C4(O)C(=O)c5cccc(O)c5C(=O)C4(O)O[C@]3(C)[C@]21O (stereo partly drawn) | cell growth or viability, MTT | 48 h | CC50 | 71 µg/mL
CC(C)(C)c1cc(-c2nc3c4ccccc4c4ccccc4c3o2)c(O)c(C(C)(C)C)c1 | colorimetric viability | concentration not given, 72 h, at anti-Trypanosoma effective doses | cytotoxicity | not toxic
N[C@H]1C[C@@H]1c1ccc(-c2cccc(O)c2)cc1 | MTT | 50 µM, 12 h | cytotoxicity | not toxic
N#Cc1nc(N2CCOCC2)nc(N(Cc2ccc(F)cc2)CC2CCCOC2)n1 (stereo not drawn) | cell growth or viability, MTS | 7 days | CC50 | 34.6 µM
CC1(C)CC[C@]23CC[C@]4(C)[C@H](CC[C@@H]5[C@@]6(C)CCCNC(C)(C)[C@@H]6CC[C@]54C)[C@H]2[C@H]1OC3 | cell growth or viability, ATP luminescence |  | CC50 | 89.5 µM
O=C(NCc1ccc(F)cc1)c1nc(NCCO)c2cccnc2c1O | cell growth or viability, MTS | 10 µM, 7 days | viability | 98%
Nc1nc2c(ncn2COCCOC(=O)[C@@H](N)CO)c(=O)[nH]1 | cell growth or viability |  | CC50 | > 300 µM
COc1ccc(-c2nc(C(=O)NCc3ccc(C)cc3)c(O)c3ncccc23)c(OC)c1 | cell growth or viability, MTS | 7 days | CC50 | 8.4 µM
CC1(C)NCCC[C@]2(C)[C@H]3C=CC4=C5C[C@@](C)(CO)CC[C@]5(C)CC[C@@]4(C)[C@]3(C)CC[C@@H]12 | cell growth or viability, ATP luminescence |  | CC50 | 80.9 µM
Nc1nc2c(ncn2COCCOC(=O)[C@@H](N)CS)c(=O)[nH]1 | cell proliferation | 10% FBS | CC50 | > 300 µM
O=C(NC1CCCCC1)c1nc(Cl)c2cccnc2c1O | cell growth or viability, MTS | 10 µM, 7 days | viability | 98%
